# Measured values of several laboratories.
# Each numbered part is a random draw from the data of one study; scales do not carry over between parts. Substitutions count along the parent as printed.

# Series 1
# Target: Histone acetyltransferase KAT6A, both winged helices, GST fusion (KAT6A, Homo sapiens, UniProt Q92794, residues 1-181)
# Method: protein binding microarray
# Molecule type: double-stranded DNA, one strand shown
# Medium: in vitro
# Tested at: not given
# Notes: 8-mer, flanks averaged, mean of 2 arrays, mostly near background
# Relative to: not given
# Direction: higher = stronger binding
# Construct (chain): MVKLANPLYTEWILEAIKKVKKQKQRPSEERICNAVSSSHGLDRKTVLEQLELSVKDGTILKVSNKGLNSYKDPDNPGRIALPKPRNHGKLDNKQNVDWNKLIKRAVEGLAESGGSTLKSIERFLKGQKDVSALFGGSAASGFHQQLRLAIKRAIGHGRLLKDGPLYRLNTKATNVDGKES
Oligonucleotide,E-score
ACCCGGAG,0.0621
CGATTTAC,0.116
ACTTCTCC,-0.206
CCCATTGA,0.0202
AGGTCACC,-0.0227
ATGTCATA,0.0514
ATCCTATC,-0.0527
GGATAGCC,-0.00194
AACTGGCC,-0.077
CGGCCACC,0.196
GAAATCAC,0.0505
ACGTCTAC,-0.0952
CCCAGGCA,-0.301
GAAACGCC,0.123
AAATTCGA,-0.183
GTATCGTA,0.01

# Series 2
# Target: CCNE1, cyclin fold, Cln2 fusion (human)
# Method: yeast growth competition, sequencing
# Medium: yeast
# Notes: weak parent motif
# Relative to: not given
# Direction: higher = stronger binding
# Starting sequence: MASTL docking peptide (human); PMIAKNLMCELDE
Substitution,normalised enrichment score
PMIAKNLMCEVDE [L11V],-0.0415
PMIAKNAMCELDE [L7A],-0.223
PMFAKNLMCELDE [I3F],-0.0792
PMIAKNLLCELDE [M8L],-0.0353
PMIAKSLMCELDE [N6S],-0.158
PMIAKGLMCELDE [N6G],0.0137
PMIAKNNMCELDE [L7N],0.141
PMIAKNLMCETDE [L11T],-0.048
PMIAKNLSCELDE [M8S],-0.0765
PMIAKDLMCELDE [N6D],0.334
PMIAKNLMEELDE [C9E],-0.0723
PMIAKNEMCELDE [L7E],0.329

# Series 3
# Target: Interferon regulatory factor 7, full length, phosphomimetic (IRF7, Homo sapiens, UniProt Q92985, residues 1-503, S471D/S472D/S475D/S476D/S477D/S483D/S484D/S487D)
# Method: protein-binding microarray
# Molecule type: double-stranded DNA, one strand shown
# Medium: in vitro
# Tested at: 2200 nM top
# Notes: 60-bp whole probe
# Added: salmon DNA 0.4 mg/ml
# Relative to: random background probes
# Direction: higher = stronger binding
# Constant ends, left off below: GCCTAGCAC … GTCTTGATTCGCTTGACGCTGCTG
# Residues (chain): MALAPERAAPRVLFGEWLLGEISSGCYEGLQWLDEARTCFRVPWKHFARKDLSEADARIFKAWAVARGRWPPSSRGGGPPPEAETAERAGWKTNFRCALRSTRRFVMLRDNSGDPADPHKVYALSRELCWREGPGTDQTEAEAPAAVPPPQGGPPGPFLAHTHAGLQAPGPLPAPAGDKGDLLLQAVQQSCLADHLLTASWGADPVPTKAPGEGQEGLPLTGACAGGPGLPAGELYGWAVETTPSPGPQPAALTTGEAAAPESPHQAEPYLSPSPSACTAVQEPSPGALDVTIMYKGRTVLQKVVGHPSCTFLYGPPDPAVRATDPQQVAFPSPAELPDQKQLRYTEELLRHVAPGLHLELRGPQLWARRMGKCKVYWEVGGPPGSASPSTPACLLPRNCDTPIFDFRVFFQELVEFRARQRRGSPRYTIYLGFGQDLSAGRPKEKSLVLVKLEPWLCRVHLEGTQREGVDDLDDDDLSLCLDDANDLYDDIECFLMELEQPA
Oligonucleotide,fitted relative affinity [z-score]
CTGGTTTTTACTTTCTGAATGTGCTAG,4.5
TTAGAACTGGGGTTTCCATTAGTGCTA,0.526
TCATATACACACTATAGTACTGTGCTA,0.944
GACGGTTCCCTTATCCTGACGTGCTAG,1.75
GACGGTTTCTTTATCCTGACGTGCTAG,2.26
GACGATCCCAGTCTCGAGACGTGCTAG,0.565
AGCACTCTTCTTTTTTTTCTGTGCTAG,1.26
TTAGGACTGCTTTCCCTTTAGTGCTAG,3.49
TCATACTTCTGTTTTTGACTGTGCTAG,2.06
TTCGATATCGGGACTGGATTAGTGCTA,0.568
TTAGGGTTCGGGTTTCGGTTAGTGCTA,4.21
TCAATTACCTCATCTTTCACTGTGCTA,1.46
GACGATTTCGGTATCGGGACGTGCTAG,4.07
GACGATATCAGTCTAGAGACGTGCTAG,0.114
CACTATTTAAGAACTATGCACGTGCTA,0.162
TTAGGTACCCTTATCCTTTAGTGCTAG,0.792
CAACATCTGCAAGATCCACAAGTGCTA,0.385

# Mixed results
Molecule,target,test,test system,setting,how to read,quantity,result
"PhoQ, residues 284 288 289 292 302 303 SSLVEF","PhoP, residues 12 14 15 18 19 IQFRS (Escherichia coli, UniProt P23836)","Sort-seq, item: YFP reporter",E. coli,"PhoQ-PhoP variant library, added: 10 µM Mg2+","relative to: high Mg2+ state, higher = stronger signaling",fold induction,1.44

# Some of these lines once more (series 1):
Oligonucleotide,E-score
CGGCCACC,0.196
GAAATCAC,0.0505
ACGTCTAC,-0.0952
